{"data": "Experimental data from different studies", "note": "Numbers after ± are the reported error."}
{"Substance": "C[C@@H]1O[C@@H](OC[C@H]2O[C@@H](Oc3c(-c4ccc(O)c(O)c4)oc4cc(O)cc(O)c4c3=O)[C@H](O)[C@@H](O)[C@@H]2O)[C@H](O)[C@H](O)[C@H]1O", "assay": "UPLC-MS/MS", "test system": "Wistar rat, microcirculation dysfunction model, plasma", "setting": "oral, 100 mg/kg Salvia miltiorrhiza stem-leaf extract FT", "AUC(0-t)": "85.3 ± 14.6 ng·h/mL"}
{"Substance": "C=CC(=O)Nc1cc(Nc2nccc(-c3cn(C)c4ccccc34)n2)c(OC)cc1N(C)CCN(C)C", "test system": "male Sprague-Dawley rat, plasma", "setting": "oral, 10 mg/kg, PEG200 pretreatment only", "AUC(0-t)": "534 ± 143 ng·h/mL"}
{"Substance": "CCN1CCN(c2ccc(Nc3cc(N(C)C(=O)Nc4c(Cl)c(OC)cc(OC)c4Cl)ncn3)cc2)CC1", "assay": "LC-MS/MS", "test system": "juvenile female Crl:WI(Han) rats, plasma", "setting": "oral gavage, 0.1 mg/kg/day, postnatal day 17", "AUC(0-t)": "36.1 ng·h/mL"}
{"Substance": "colistin methanesulfonate", "assay": "LC-MS/MS", "test system": "rat, kidney cortex", "setting": "i.p., 10 mg/kg colistin base activity", "AUC(0-t)": "162 µg·h/g"}
{"Substance": "CS(=O)(=O)c1ccc(-c2cnc(N)c(-c3ccc(C(F)(F)F)nc3)c2)cc1", "test system": "pregnant female Sprague-Dawley rat, plasma", "setting": "oral, 10 mg/kg/day, gestation day 6", "AUC(0-t)": "32900 ng·h/mL"}
{"Substance": "O=C(/C=C/c1ccc(O)c(O)c1)O[C@H](Cc1ccc(O)c(O)c1)C(=O)O", "assay": "UPLC-MS/MS", "test system": "Wistar rat, microcirculation dysfunction model, plasma", "setting": "oral, 100 mg/kg Salvia miltiorrhiza stem-leaf extract FS", "AUC(0-t)": "222 ± 16.9 ng·h/mL"}
{"Substance": "CCCC[C@H](NC(C)=O)C(=O)N[C@H]1CCC(=O)NC[C@@H](C(=O)N[C@@H](Cc2c[nH]c3ccccc23)C(N)=O)NC(=O)[C@H](CCCNC(=N)N)NC(=O)[C@@H](Cc2ccccc2)NC(=O)[C@H](Cc2c[nH]cn2)NC1=O", "test system": "CD Sprague Dawley rat, male, plasma", "setting": "subcutaneous, 5.0 mg/kg daily, day 14", "AUC(0-t)": "1640 ng·h/mL"}
{"Substance": "O=C(O)/C=C/c1ccc(O)c(O)c1", "assay": "UPLC-MS/MS", "test system": "Wistar rat, microcirculation dysfunction model, plasma", "setting": "oral, 100 mg/kg Salvia miltiorrhiza stem-leaf extract FS", "AUC(0-t)": "40.8 ± 4.34 ng·h/mL"}
{"Substance": "CNC(=O)c1ccc(-c2cnc3ncc(Cc4ccc5ncccc5c4)n3n2)cc1F", "test system": "moderate hepatic impairment", "setting": "oral, 200 mg, geometric mean", "AUC(0-t)": "5660 ng·h/mL"}
{"Substance": "CN(Cc1cnc2nc(N)nc(N)c2n1)c1ccc(C(=O)N[C@@H](CCC(=O)O)C(=O)O)cc1", "test system": "rat, plasma", "setting": "oral, 5.0 mg/kg, 2880 min, added: indican 20.0 mg/kg oral", "AUC(0-t)": "3.5 ± 0.473 µM·h"}
{"note": "A few entries again:"}
{"Substance": "C=CC(=O)Nc1cc(Nc2nccc(-c3cn(C)c4ccccc34)n2)c(OC)cc1N(C)CCN(C)C", "test system": "male Sprague-Dawley rat, plasma", "setting": "oral, 10 mg/kg, PEG200 pretreatment only", "AUC(0-t)": "534 ± 143 ng·h/mL"}
{"Substance": "CCN1CCN(c2ccc(Nc3cc(N(C)C(=O)Nc4c(Cl)c(OC)cc(OC)c4Cl)ncn3)cc2)CC1", "assay": "LC-MS/MS", "test system": "juvenile female Crl:WI(Han) rats, plasma", "setting": "oral gavage, 0.1 mg/kg/day, postnatal day 17", "AUC(0-t)": "36.1 ng·h/mL"}
